Published values from different studies.
Every numbered part comes from another study and shows a few of its results, in no order.

Series 1 — method: protein-binding microarray; molecule type: double-stranded DNA, one strand shown; sample: in vitro; concentration: 0.8 µM; setting: whole 60-bp probe, no competitor; reading: higher = stronger binding; measurement: fluorescence intensity; shared flanks, not repeated: … GTCTTGATTCGCTTGACGCTGCTG
Target: Centromere-binding protein 1, full length, N-terminal tag (CBF1, Saccharomyces cerevisiae, UniProt P17106, residues 1-351)
Sequence of UniProt P17106 (whole entry, looked up): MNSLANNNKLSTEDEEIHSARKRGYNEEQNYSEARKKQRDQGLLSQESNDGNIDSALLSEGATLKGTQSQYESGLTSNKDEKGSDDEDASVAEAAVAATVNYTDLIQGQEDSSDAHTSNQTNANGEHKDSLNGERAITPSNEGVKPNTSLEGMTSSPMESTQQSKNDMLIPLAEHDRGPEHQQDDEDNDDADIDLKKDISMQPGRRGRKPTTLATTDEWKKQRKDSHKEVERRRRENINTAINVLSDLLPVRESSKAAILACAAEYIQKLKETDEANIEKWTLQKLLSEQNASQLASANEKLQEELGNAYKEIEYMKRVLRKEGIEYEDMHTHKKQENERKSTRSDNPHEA
GAAGTTACTGTGGTTCACGTGATTCAAGTGTGCTAG: 14500 a.u.
CTAAGATCTGAAAGTCACATATAAGAGCAATATTTC: 558 a.u.
CTATAATACAAACCTCATGTGCATATATACATATTC: 534 a.u.
CTATTTCTAATAGGTGACATTACAAAATCCAGTTTC: 527 a.u.
GAATTGATGATTTCGCACGTGGGAAAAGTAATCTAG: 4560 a.u.
CTATTTTGGAGTTGTCACGGTATAGATATGTCTTTC: 703 a.u.

Series 2 — method: protein binding microarray; molecule type: double-stranded DNA, one strand shown; sample: in vitro; concentration: not given; relative to: not given; reading: higher = stronger binding; measurement: E-score
Target: Histone acetyltransferase KAT6A, both winged helices, GST fusion (KAT6A, Homo sapiens, UniProt Q92794, residues 1-181)
Setting: 8-mer, flanks averaged, mean of 2 arrays, mostly near background
Target sequence (chain): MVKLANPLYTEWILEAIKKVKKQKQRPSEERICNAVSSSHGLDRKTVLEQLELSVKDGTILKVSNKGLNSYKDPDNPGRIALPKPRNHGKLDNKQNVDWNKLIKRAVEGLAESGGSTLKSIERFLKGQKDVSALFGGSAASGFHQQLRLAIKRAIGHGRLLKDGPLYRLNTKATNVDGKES
GAGATAAC: -0.0563
ATAGCAGA: -0.179
CTGGTGCC: -0.0647
AGCGGAAA: 0.205
CTAACTAC: -0.0375
TATCTAGA: -0.159

Series 3 — method: RNA Bind-n-Seq; molecule type: RNA; sample: in vitro; concentration: 365 nM; relative to: no-protein control; reading: higher = stronger binding; measurement: RBNS enrichment (R)
Target: RNA binding protein fox-1 homolog 2, RRM domain, GST-SBP tag (RBFOX2, Homo sapiens, UniProt O43251-10, residues 100-194)
Setting: natural RNA segment, single round, ends assumed
Shared flanks, not repeated: GGGAGUUCUACAGUCCGACGAUC … UGGAAUUCUCGGGUGCCAA
UUUCUGGGCCUCAUUCUGCCAAAGCUGGACCAAGGUUCCAUCUUUCUAAGCUCCCUAGCUCAGGCCAAGAAAGAAAGCUGAGCUACUUUUAACUUUCUCUUCCUUAAAUA: 0.535
UGUAAUGCACUUUGGGAGGCCAAGGCGGGAGGAUUGCUUGAGCCCAGGAGUUCAAGACCAGCCUGGGCAACAUACCAAGACCCCCGUCUCUUUAAAAAUAUAUAUAUUUU: 0.372
UUUUGAAGAAAUUUAUUCGUGAAAGGAAGAGCAGUUGUUAUUUAUUGUGAGGUCUCUUGCUUGUAAAGUAAAACUGUUUUUUUUUUCCCCCUUGUAAACCAUUUAAGUCC: 0.389
GAUUUUUGAAUGUGAUUUUAAAGAGUGAAAAAUGAGACUAUGCGUUUUUAUAAAAAAUGGUGCCUGAUUCGGCUGUCUCAGACUCUUUUUGUACCUGGUGACCCCUUUUC: 3.35
UAGAUCUGAAUUUUCUAUGUUUAGCUAUUUAAUGUUAAUUUCCCACAAUCCAUGGGGGCGCUUAGUGGAAGGAUUAAUAUUAUGUUUAAGGGAAUAGUUUAUAUGGACCU: 0.708

Mixed results
PhoQ, residues 284 288 289 292 302 303 DDMDFR  fold induction (PhoP, residues 12 14 15 18 19 GQALL (Escherichia coli, UniProt P23836); Sort-seq, item: YFP reporter; E. coli; PhoQ-PhoP variant library, added: 10 µM Mg2+; relative to: high Mg2+ state, higher = stronger signaling): 1.35

A few entries again (series 2):
TATCTAGA: -0.159
CTGGTGCC: -0.0647
